Measurements of several laboratories.
Each numbered part is a random draw from the data of one study; scales do not carry over between parts. Changes are numbered by the printed parent chain.

Sample 1 — technique: RNA Bind-n-Seq; molecule type: RNA; sample: in vitro; concentration: 200 nM; notes: whole 134-nt RNA, ends assumed; added: 150 mM KCl; baseline: input library; reading: higher = stronger binding; measurement: log2 enrichment
Target: Fragile X messenger ribonucleoprotein 1, C-terminal low-complexity region (Fmr1, Mus musculus, UniProt P35922)
Shared flanks, not repeated: GGGAGUUCUACAGUCCGACGAUC … UGGAAUUCUCGGGUGUCAAGG
UGGCCCUGGUGGUAUGCGGGGAGGAAGAGGUGGCCUCAUGGAUCGUGGUGGUCCCGGUGGAAUGUUCAGAGGUGGCCGUGGUGGAGACAG: -0.0115
ACCAUGCAGGUGGGCAUCUUUGGGAAGUGGGGCAAGGGGGGGAUAGGGAGGGGGGUAACACUUAGGGAACAGGUGGUCCCAGGUCGUUUC: 0.701
UGGCCAUGGUGGCAUGCGGGGAGGAAGAGGUGGCCUCAUGGAUCGUGGUGGUCCCGGUGGAAUGUUCAGAGGUGGCCGUGGUGGAGACAG: 0.178
CCUGUGCUACACAUCGUAUGUACCGAAUCGGGGUUUUUUUGGGGUUUUUUUGGGGUGGGGAAAGUAUUAUGUUACGCCGUUCGGAUCUGC: 0.518
UAACUUUAGAGGAGGAUCUGAUGGAUAUGGCAGUGGACGUGGAUUUGGGGAUGGCUAUAAUGGGUAUGGAGGACGACCUGGAGGUGGCAA: 0.386
GUCCUGUGCUACACAUCGUAUGUACCGAAUCGGGGAAAAAGGGGUGGGGAAAAAGGGGAAAGUAUUAUGUUACGCCGUUCGGAUCUGCAC: 0.345
CUGUGCUACACAUCGUAUGUACCGAAUCGGAAAAAAAGGGAAAAAAAGGGAAAAAAAGGGGAAAGUAUUAUGUUACGCCGUUCGGAUCUG: -1.09
GCAGGAAGUAAAAACAAAUGGAAAUGCUUCAGAUAGUGGCAGGGGUGGGGGUUGCUAAGGAAAGGGUGGGAUGGGAGUGGGUAAAGAGUU: 0.111
GAGUCCGGUUCGUGUUCGUCCGCGGAGAUCUCUCUCAUCUCGCUCGGCUGCGGGAAAUCGGGCUGAAGCGACUGAGUCCGCGAUGGAGGU: -1.29
CUGUGCUACACAUCGUAUGUACCGAAUCGGGGAAAAAAAGGGGUUUGGGGUUUUUUUGGGGAAAGUAUUAUGUUACGCCGUUCGGAUCUG: 0.0438
UGGCCCUGGUGGCAUGCGGGGAGGAAGAGGUGGCCUCAUGGAUCGUGGUGGUCCCGGUGGAAUGUUCAGAGGUGGCCGUGGUGGAGACGG: 0.0586
CCUCAAGUCCUGUGCUACACAUCGUAUGUACCGAAUCGGGGUGGGUGGGGUGGAAAGUAUUAUGUUACGCCGUUCGGAUCUGCACUUCCA: 1.25
UUCCCCACUUCCUUCCCUCCAGUCCCCACUCACUCACAUGCACACACUAACCUUGGAGCCGAUGGGAUUGAGUGACUGGCACUUGGGACC: 0.769
AAGUCCUGUGCUACACAUCGUAUGUACCGAAUCGGGUUUUUUUGGGUGGGUUUGGGAAAGUAUUAUGUUACGCCGUUCGGAUCUGCACUU: 0.981

Sample 2 — technique: aptamer microarray, sandwich; molecule type: DNA with 2'F-ANA; sample: in vitro; concentration: 200 nM; added: Cy3 exosite-II aptamer, 400 nM; reading: higher = stronger binding; measurement: mean fluorescence intensity; oligonucleotide: GGTTGGTGTGGTTGG
Target: Prothrombin, mature alpha-thrombin (F2, Homo sapiens, UniProt P00734)
Notes: whole 15-mer aptamer, many near background
2'F-ANA at 3 4 9 10 11 12 13 15: 220 a.u.
2'F-ANA at 1 4 5 6 7 8 9 11 12 13 14 15: 48.3 a.u.
2'F-ANA at 1 2 7 8 12 13 15: 318 a.u.
2'F-ANA at 2 4 5 10 14 15: 53.2 a.u.
2'F-ANA at 3 4 6 8 11 12: 899 a.u.
2'F-ANA at 3 4 6 8 9 10 11 13 14: 143 a.u.
2'F-ANA at 2 4 5 6 7 8 9 14 15: 48.2 a.u.
2'F-ANA at 1 2 6 7 9 14: 65.4 a.u.
2'F-ANA at 1 2 3 5 7 9 10 11 12 13 14: 59 a.u.
2'F-ANA at 1 4 6 7 8 9 13: 80.6 a.u.
2'F-ANA at 3 4 7 8 10 11 12 13 14: 198 a.u.
2'F-ANA at 4 5 6 8 9 11 12 13 14: 47.5 a.u.
2'F-ANA at 1 7 9 12 14 15: 74.3 a.u.
2'F-ANA at 1 3 5 9 11 13 14 15: 45.6 a.u.
2'F-ANA at 2 3 6 7 9 12 15: 842 a.u.
2'F-ANA at 3 4 8 9 10 11 12 14: 182 a.u.
2'F-ANA at 1 3 6 8 13: 239 a.u.
2'F-ANA at 1 2 5 7 10 15: 45.5 a.u.
2'F-ANA at 1 3 5 8 9 12 14: 47.2 a.u.
2'F-ANA at 1 4 6 7 10 11 15: 79.6 a.u.
2'F-ANA at 1 2 3 4 5 6 7 9 10 11 13: 53.4 a.u.
2'F-ANA at 1 3 4 8 12 14: 107 a.u.
2'F-ANA at 1 2 8 9 12 14: 70.2 a.u.
2'F-ANA at 6 7 8 9 10 12: 209 a.u.
2'F-ANA at 4 10 14: 65.8 a.u.

Sample 3 — technique: RNA Bind-n-Seq; molecule type: RNA; sample: in vitro; concentration: 365 nM; baseline: no-protein control; reading: higher = stronger binding; measurement: RBNS enrichment (R)
Target: RNA binding protein fox-1 homolog 2, RRM domain, GST-SBP tag (RBFOX2, Homo sapiens, UniProt O43251-10, residues 100-194)
Notes: natural RNA segment, single round, ends assumed
Shared flanks, not repeated: GGGAGUUCUACAGUCCGACGAUC … UGGAAUUCUCGGGUGCCAA
Target sequence (chain): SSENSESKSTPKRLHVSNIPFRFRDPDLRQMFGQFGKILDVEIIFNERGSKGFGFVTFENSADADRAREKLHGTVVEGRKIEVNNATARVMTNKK
UGCUCCUGCCAGCAACCCACCACCACCGGCUCUCAUGUCUACAACUCAGAGCCGCCCACCCUGGAUGAAUUCUGGUCCUUCAGAGAAUCGGCCCUACCAUGGCAUGCAUG: 6.17
UUUAUUUAUUCAGUCUGGGUUGUAGAACUUUGCAAUCUAAGUUUAUUUUUUGUAAACUAAUAAUUCAUUUGGUGCUGGUCUAUUGAUUGGGGGCCUACUUCUUCAUGGAA: 0.593
CAAGUUCGGAUGCGGGAACCUGGUCCCAGCUUGAGUUCCUGCCUUUCCCACCACAAAUUAUCAACUGGUUGAUGUGUACACUAAUUACAUUUCAGGAGGACUUAAUGCUA: 0.215
GUGAUCACCAGGGGACCUAGGGAGAUCCCCUUCCCACCCUCUCUGUUGGCCUCAGAGUCACUCCUGCCCCCUCUCCCUGACUUGGUGCUCACAUGCACCUCACUAGGGUU: 0.281
GGCAUAGAAUAGGUGCUCAGUAUAUGGUCAGUAAAUGUUCUAUUGAUUAUCAAUCAGUGAAAAAAGAAAUCUGUUUAAAAUACUGAAUUUUCAUCUCACUCCCAUUGCAA: 0.489
GGGCCCUGGAAAACGUGAGAGACUGCCCUGAGCUGGUCCAGUGGGCCAGCACUUUAUACCAACUCAGCAUUUAAGGGAAGUAUCUUAGAUUGCCUCCAUCUCAAUGUGAA: 0.926
CACUGCUUUUUUUCCUGAUGUGGGGUGAGGGUCUAUUCUGUUUCCCAUUCCUGCUGCAUCCUGCCUGUGCCCCACAGCAAGCUUUCCACCCCCCAGGGAGGACCCAGCCC: 9.85
UUUAAAGGAAUAAAGCAAACCAGUGCUAAGAAUUUUUUUUUUAAAGCUAGCUACAUUGCAGCAGAGUUGUUGUGUAUGUGUGCAUUUAAAGAAGAUAAUGCUUAUUCUGU: 0.517
UGUUAUUUUUGUAUACUAUAUCACUUAGACAACUGUGUUUCAUUUGCUGUAAUCAGUUUUUAAAAGUCAGAUGGAAAAAGCAACUGAAGUCCUAGAAAAUAGAAAAUGUA: 0.53
AAAACAUGCUUAAAGGAGUAACUAGGAGGGUAAAGCAGUUACAGCUUAGUGAUACAAAUACAUUUCUCUGUAGACUUCCUUAAGGAAAGACGUGAGUAGAGCUAGGUUGG: 0.313
UCAGUUUCCAAAUGCAAUACUCUAUUCUGGUUUUUCCUGAGUGAGCCUGAUUUUGUUCCUGUUUUUCAUCUACGAGGGUAAAAGCAUACCCCGGGAAAUCCCUGUGGCCA: 0.325
AAUACCCACAACAACUGUAGUUUCUUACUUGGCCAAGAGAAUGCUUAUUUAAGUGUUAGACUUCCAUUCUGGCAAAAUCUUGCCUUAUCAGAAGACAUUGGAAAGAGGGA: 0.261

Sample 4 — technique: DHFR PCA, deep sequencing; sample: yeast; added: (+)-ABA 200 µM; baseline: wild-type fitted maximum; reading: higher = stronger binding; measurement: relative binding score
Target: ABI1, truncated, D143A, DHFR fusion (Arabidopsis thaliana)
Notes: methotrexate growth selection, single substitutions
Starting sequence: PYL1, truncated, DHFR fusion (Arabidopsis thaliana); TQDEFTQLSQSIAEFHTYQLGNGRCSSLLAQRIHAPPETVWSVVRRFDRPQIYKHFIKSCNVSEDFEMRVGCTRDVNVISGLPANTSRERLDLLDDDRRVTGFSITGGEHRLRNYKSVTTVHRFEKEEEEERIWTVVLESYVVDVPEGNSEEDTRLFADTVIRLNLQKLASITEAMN
D95H: 73.2%
S104D: 10.6%
D95F: 55.7%
L8N: 88.5%
S63M: 94.8%
F5E: 87%
V121L: 96%
S27N: 101%
T1D: 98%
V143L: 70.6%
A158S: 78.4%
L112E: -10.3%
E151C: 92.1%
D65L: 90.7%

Sample 5 — target: CCNE2, cyclin fold, Cln2 fusion (human); technique: yeast growth competition, sequencing; sample: yeast; notes: strong parent motif; baseline: not given; reading: higher = stronger binding; measurement: normalised enrichment score
Starting sequence: REPIN1 docking peptide (human); QSFRGWVALVLHL; partner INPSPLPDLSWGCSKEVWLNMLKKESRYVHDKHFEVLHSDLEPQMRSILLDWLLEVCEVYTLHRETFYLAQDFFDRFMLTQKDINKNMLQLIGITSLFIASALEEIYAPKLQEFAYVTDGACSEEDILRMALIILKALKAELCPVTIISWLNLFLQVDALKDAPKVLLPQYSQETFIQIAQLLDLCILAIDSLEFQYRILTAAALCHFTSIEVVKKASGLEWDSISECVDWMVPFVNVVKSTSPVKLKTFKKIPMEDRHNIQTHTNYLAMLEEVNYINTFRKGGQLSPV
V7A: 1.64
F3A: 0.893
H12A: 0.627
V10A: 0.569
L11A: 1.05
W6A: 0.547
